Measurements gathered from unrelated publications.
Each numbered part is a random draw from the data of one study; scales do not carry over between parts. Changes are numbered by the printed parent chain.

Study 1 — technique: DHFR PCA, deep sequencing; sample: yeast; together with: (+)-ABA 0.032 µM; reference: wild-type fitted maximum; reading: higher = stronger binding
Target: ABI1, truncated, D143A, DHFR fusion (Arabidopsis thaliana)
Setting: methotrexate growth selection, single substitutions
Starting sequence: PYL1, truncated, DHFR fusion (Arabidopsis thaliana); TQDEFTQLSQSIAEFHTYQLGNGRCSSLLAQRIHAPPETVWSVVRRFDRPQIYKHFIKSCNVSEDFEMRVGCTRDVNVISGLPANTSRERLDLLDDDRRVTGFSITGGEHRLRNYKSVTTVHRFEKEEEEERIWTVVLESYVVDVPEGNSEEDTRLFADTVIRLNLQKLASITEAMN; partner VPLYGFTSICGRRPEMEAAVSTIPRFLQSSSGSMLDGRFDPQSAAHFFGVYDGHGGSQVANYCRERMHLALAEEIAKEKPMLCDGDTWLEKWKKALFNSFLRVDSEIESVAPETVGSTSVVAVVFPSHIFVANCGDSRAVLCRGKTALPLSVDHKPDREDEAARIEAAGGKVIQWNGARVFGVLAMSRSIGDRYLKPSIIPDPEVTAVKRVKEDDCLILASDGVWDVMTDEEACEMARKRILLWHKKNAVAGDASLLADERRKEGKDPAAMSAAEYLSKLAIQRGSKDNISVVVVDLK
`L93W` — result for “relative binding score”: -3.27%.
`Y115E`: “relative binding score” -3.36%.
`S80P` — result for “relative binding score”: -3.29%.
For `L94N`, “relative binding score” read 7.4%.
`F124G`: “relative binding score” 2.51%.
`D48A` — result for “relative binding score”: -4.97%.
Under “relative binding score”, `R113N` is recorded as 13.7%.
`I52Q` — result for “relative binding score”: 16.7%.
For `Q19G`, “relative binding score” read 10.5%.
Under “relative binding score”, `V43P` is recorded as -1.44%.

Study 2 — target: CREB3L3, bZIP domain (human); technique: DHFR protein complementation; sample: yeast; reference: wild-type JUN-FOS pair; reading: higher = stronger binding
Setting: single substitutions, most at no-binding floor
Starting sequence: JUN, bZIP domain (human); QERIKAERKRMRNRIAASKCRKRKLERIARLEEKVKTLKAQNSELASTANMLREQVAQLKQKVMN; partner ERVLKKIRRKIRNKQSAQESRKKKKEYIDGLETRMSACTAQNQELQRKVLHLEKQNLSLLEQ
For `L45A`, the binding fitness was -1.4 natural log.
`E33C` gave a binding fitness of -1.48 natural log.
`K39W` has a binding fitness of -1.52 natural log.
`R30C` has a binding fitness of -1.42 natural log.
The binding fitness of `E32F` is reported as -1.34 natural log.
With `L31W` the binding fitness was -1.54 natural log.
`E32G` gave a binding fitness of -1.42 natural log.
`T48H` has a binding fitness of -1.5 natural log.
With `E54H` the binding fitness was -1.42 natural log.
The binding fitness of `R30I` is reported as -1.53 natural log.
For `E32S`, the binding fitness was -1.51 natural log.
For `A29N`, the binding fitness was -1.44 natural log.
The binding fitness of `E33W` is reported as -1.52 natural log.
`V56A` gave a binding fitness of -1.51 natural log.
With `L31I` the binding fitness was -1.36 natural log.
For `E54M`, the binding fitness was -1.45 natural log.

Study 3 — target: CCNE2, cyclin fold, Cln2 fusion (human); technique: yeast growth competition, sequencing; sample: yeast; setting: weak parent motif; reference: not given; reading: higher = stronger binding
Starting sequence: RB1 docking peptide (human); PKPLKKLRFDIEG; partner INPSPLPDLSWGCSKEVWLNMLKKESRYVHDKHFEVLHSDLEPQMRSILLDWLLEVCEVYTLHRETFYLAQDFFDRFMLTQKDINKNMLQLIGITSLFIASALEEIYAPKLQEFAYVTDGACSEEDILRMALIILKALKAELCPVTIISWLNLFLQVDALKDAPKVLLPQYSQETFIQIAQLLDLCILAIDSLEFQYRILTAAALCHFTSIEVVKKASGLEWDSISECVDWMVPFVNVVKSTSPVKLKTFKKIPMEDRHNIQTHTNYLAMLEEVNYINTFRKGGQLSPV
`P3Q`: “normalised enrichment score” 0.306.
`P3G` — result for “normalised enrichment score”: 0.927.
For `R8E`, “normalised enrichment score” read -0.133.
`I11E`: “normalised enrichment score” 0.714.
`I11G` — result for “normalised enrichment score”: 0.646.
For `K2R`, “normalised enrichment score” read 1.09.
Under “normalised enrichment score”, `F9N` is recorded as 1.27.
Under “normalised enrichment score”, `K5W` is recorded as 0.678.
`K2W`: “normalised enrichment score” 0.287.
`L4W`: “normalised enrichment score” 0.383.
`R8I`: “normalised enrichment score” 0.416.
`L7F` — result for “normalised enrichment score”: 0.474.
Under “normalised enrichment score”, `P3I` is recorded as 0.98.
For `K2F`, “normalised enrichment score” read 0.564.
For `G13A`, “normalised enrichment score” read 0.919.
For `P3F`, “normalised enrichment score” read 0.24.
For `P1G`, “normalised enrichment score” read 0.565.
For `L7G`, “normalised enrichment score” read 0.805.
`F9W` — result for “normalised enrichment score”: 0.12.
For `P1Y`, “normalised enrichment score” read 0.299.
`G13L` — result for “normalised enrichment score”: 0.335.
`F9C`: “normalised enrichment score” 0.374.
`I11C` — result for “normalised enrichment score”: 0.436.
Under “normalised enrichment score”, `D10I` is recorded as -0.377.
For `K5R F9L`, “normalised enrichment score” read -0.0392.

Further values, each from its own experiment
`PhoQ, residues 284 288 289 292 302 303 NLSRDF` has a fold induction of 3.45 (PhoP, residues 12 14 15 18 19 YHFSH (Escherichia coli, UniProt P23836); Sort-seq, measured: YFP reporter; E. coli; PhoQ-PhoP variant library, together with: 10 µM Mg2+; reference: high Mg2+ state, higher = stronger signaling).

A few entries again (study 3):
`I11G` — result for “normalised enrichment score”: 0.646.
`P3G` — result for “normalised enrichment score”: 0.927.
For `R8E`, “normalised enrichment score” read -0.133.
Under “normalised enrichment score”, `K5W` is recorded as 0.678.
`P3Q`: “normalised enrichment score” 0.306.
